Published values collected from several papers.
“And” joins repeats or separate records; there may be more than shown. Numbers after ± are the reported error. Values after ≈ are worked out from the molar mass of the structure shown.

`Nc1nc(-c2ccc(C(F)(F)F)cc2)nc2[nH]nc(Nc3ccc(F)cc3)c12` gave an IC50 of 3180 nM (rhinovirus B42; viral cytopathic effect; HeLa).
For `c1ccc(CN2CCOCCOCCN(CCCCCCCCCCCCN3CCOCCOCCN(CCCCCCCCCCCCN4CCOCCOCCN(Cc5ccccc5)CCOCCOCC4)CCOCCOCC3)CCOCCOCC2)cc1`, the FIC index was 0.67 (Klebsiella pneumoniae; ATCC BAA-2146; quarter MIC, together with: ciprofloxacin).
For `COc1cc(CCO)ccc1O`, the inhibition was 30.6 ± 2.74% (Zika virus; viral replication, CCK-8; Vero C1008; 10 µM, 96 h).
With `COc1ccc(-c2ccc(C(F)(F)F)cc2)c2c1C(C)=N[C@H](C)C2` the IC50 was 5110 nM (Plasmodium falciparum; parasite growth, SYBR Green; NF54; blood stage).
`Nc1nc(-c2ccccc2)nc2[nH]nc(Nc3ccccc3)c12` has an IC50 of 20 nM (rhinovirus B42; viral cytopathic effect; HeLa).
`CCCCCCCCCC(=O)N[C@@H](Cc1c[nH]c2ccccc12)C(=O)N[C@H](CC(N)=O)C(=O)N[C@@H](CC(=O)O)C(=O)N[C@@H]1C(=O)NCC(=O)N[C@@H](CCCNC(=O)OC2/C=C/CCCCC2)C(=O)N[C@@H](CC(=O)O)C(=O)N[C@H](C)C(=O)N[C@@H](CC(=O)O)C(=O)NCC(=O)N[C@H](CO)C(=O)N[C@@H]([C@H](C)CC(=O)O)C(=O)N[C@@H](CC(=O)c2ccccc2N)C(=O)O[C@@H]1C` (stereo partly shown) — result for “peak heat flow time”: 0 h (Staphylococcus aureus; planktonic bacterial growth, isothermal microcalorimetry; MSSA; 3.0 µg/mL, 24 h, 37 °C, together with: TAG hydrogel).
For `COc1cc(C(c2c[nH]c(=O)[nH]c2=O)c2c[nH]c(=O)[nH]c2=O)cc(OC)c1OC`, the inhibition was 32% (Human immunodeficiency virus 1; viral replication, inhibitor, ELISA; 1 µg/mL).
`Cc1ncsc1-c1ccc(CNC(=O)[C@@H]2C[C@H](O)CN2C(=O)[C@@H](NC(=O)CN2CCN(C3CN(CCNC(=O)C[C@@H]4N=C(c5ccc(Cl)cc5)c5c(sc(C)c5C)-n5c(C)nnc54)C3)CC2)C(C)(C)C)cc1` gave a protein level of 130% and 159% and 150% and 167% (Spodoptera frugiperda; degrader, targeted LC-MS, measured: BRD3; Sf9; 0.01 µM).
The germination rate of `Cc1cccc2c1N(C(=O)n1ccnn1)CC2` is reported as 7.5% and 92.3% and 86.2% and 81.5% and 85.2% and 6.3% (Arabidopsis thaliana; wild type, seeds; 1 µM, high ambient temperature).
`C=C(NC(=O)c1csc(-c2nc3c(cc2O)-c2nc(cs2)C(=O)NC(C(C)O)C(=O)NC(=C(C)OC)c2nc(cs2)C(=O)NC2c4nc(cs4)C(=O)NC(COC(=O)c4c5c6c(cccc6n4O)COC(=O)C(OC4CC(C)(O)C(N(C)C)C(C)O4)C2OC5)c2nc-3cs2)n1)C(N)=O` (stereo not shown) gave an MIC50 of 0.0625 µg/mL (≈ 0.0435 µM) (Staphylococcus aureus; MRSA, 10 isolates; serum 50%).
For `Nc1nc(-c2ccccc2)nc2[nH]nc(Nc3ccc(OC(F)(F)F)cc3)c12`, the IC50 was 13700 nM (coxsackievirus B3; viral cytopathic effect; HeLa).
The IC50 of `COc1cccc2c(-c3ccc4c(c3O)[C@@H](C)N[C@H](C)C4)c(CO)cc(OC)c12` is reported as 15.5 ± 3.8 nM (Plasmodium falciparum; asexual parasite proliferation, SYBR Green I fluorescence; HB3).
`O=c1[nH]cc(C(c2ccc(F)cc2)c2c[nH]c(=O)[nH]c2=O)c(=O)[nH]1` gave an inhibition of 20% (Human immunodeficiency virus 1; viral replication, inhibitor, ELISA; 1 µg/mL).
With `Cc1ccc(-c2nc(N)c3c(Nc4ccc(F)cc4)n[nH]c3n2)cc1F` the IC50 was 1690 nM (rhinovirus B42; viral cytopathic effect; HeLa).
`Cc1cc(C(=O)N[C@@H](CC(=O)NC(C)(C)C)C(=O)NCCNC(=O)c2cc(-c3ccccc3)ccn2)no1` has an EC50 of 190 nM (Plasmodium falciparum; male gamete activation; NF54; 48 h).
`CN(Cc1ccc(C2(C(F)(F)F)CCC2)cc1)Cc1cccc2ccccc12` gave an inhibition zone of 43.8 mm (Trichophyton rubrum; microbial growth, disc diffusion; ATCC28188; 0.128 µg/mL, 6 days).
`O=c1[nH]cc(C(c2ccc(Cl)cc2Cl)c2c[nH]c(=O)[nH]c2=O)c(=O)[nH]1` has an inhibition of 7% (Human immunodeficiency virus 1; viral replication, inhibitor, ELISA; 1 µg/mL).
With `Cc1ccc(-c2nc(N)c3c(Nc4ccc(F)cc4)n[nH]c3n2)cc1` the IC50 was 110 nM (rhinovirus B42; viral cytopathic effect; HeLa).
`COc1cc(O)c(-c2cc(-c3cc(-c4c(O)cc5c(c4OC)[C@H](C)N[C@H](C)C5)c4cc(C)cc(OC)c4c3O)c(O)c3c(OC)cc(C)cc23)c2c1[C@H](C)N[C@H](C)C2` gave an IC50 of 57.3 ± 1.6 nM (Plasmodium falciparum; asexual parasite proliferation, SYBR Green I fluorescence; clinical isolate SB_05, Mozambique).
For `COC1C=COC2(C)Oc3c(C)c(O)c4c(c3C2=O)C2=NC3(CCN(CC(C)C)CC3)NC2=C(NC(=O)C(C)=CC=CC(C)C(O)C(C)C(O)C(C)C(OC(=O)Nc2cnccn2)C1C)C4=O` (stereo not shown), the IC90 was 44 nM (Mycobacteroides abscessus; bacterial growth; subsp. abscessus ATCC 19977).
For `CCCOC(=O)N1c2cc(CNC)ccc2[C@H](NC(=O)C(=O)Nc2ccc(Cl)c(F)c2)[C@H]1CNC(=N)N`, the IC80 was 107 nM (HIV-1; pseudovirus infection, Env pseudovirus neutralisation; TZM-bl, clade B).
For `CC[C@H](C)[C@H](NC(=O)[C@H](Cc1ccc(O)cc1)NC(=O)[C@H](CCC(=O)O)NC(=O)CNC(=O)[C@H](CCC(=O)O)NC(=O)[C@H](CCCCN)NC(=O)[C@H](CCCCN)NC(=O)[C@H](CC(=O)O)NC(=O)[C@H](Cc1c[nH]cn1)NC(=O)[C@H](Cc1c[nH]cn1)NC(=O)[C@H](Cc1c[nH]cn1)NC(=O)[C@H](Cc1c[nH]cn1)NC(=O)[C@H](Cc1c[nH]cn1)NC(=O)[C@H](Cc1c[nH]cn1)NC(=O)[C@H](Cc1c[nH]cn1)NC(=O)[C@H](Cc1c[nH]cn1)NC(=O)[C@H](Cc1c[nH]cn1)NC(=O)[C@@H](N)Cc1c[nH]cn1)C(=O)N[C@@H](CCCCN)C(=O)N[C@@H](CC(C)C)C(=O)N[C@@H](CCCCN)C(=O)N[C@H](C(=O)N[C@H](C(=O)NCC(=O)N[C@@H](CCC(N)=O)C(=O)N[C@@H](CC(=O)O)C(=O)N[C@@H](CO)C(=O)N[C@@H](CO)C(=O)N[C@@H](CCC(=O)O)C(=O)N[C@H](C(=O)N[C@@H](Cc1c[nH]cn1)C(=O)N[C@@H](Cc1ccccc1)C(=O)N[C@@H](CCCCN)C(=O)N[C@H](C(=O)N[C@@H](CCCCN)C(=O)N[C@@H](CCSC)C(=O)N[C@H](C(=O)N[C@H](C(=O)N[C@@H](Cc1c[nH]cn1)C(=O)N[C@@H](CC(C)C)C(=O)N[C@@H](CCCCN)C(=O)N[C@@H](CCCCN)C(=O)N[C@@H](CC(C)C)C(=O)N[C@@H](CCCCN)C(=O)N[C@@H](CCC(=O)O)C(=O)N[C@@H](CO)C(=O)N[C@@H](Cc1ccc(O)cc1)C(=O)N[C@@H](CS)C(=O)N[C@@H](CCC(N)=O)C(=O)N[C@@H](CCCNC(=N)N)C(=O)N[C@@H](CCC(N)=O)C(=O)O)[C@@H](C)O)[C@@H](C)O)C(C)C)[C@@H](C)CC)[C@@H](C)CC)C(C)C`, “TH level mean difference” read -0.557 (Drosophila melanogaster; immunoblot; head; 120 µM, normalised to β-actin, unit not given; reference: untreated).
For `Nc1nc(-c2ccccc2)nc2[nH]nc(Nc3ccccc3F)c12`, the IC50 was 10 nM (rhinovirus B42; viral cytopathic effect; HeLa).
`O=C(O)c1cccc(O)c1` — result for “pcaH mRNA level”: “increased” (Streptomyces coelicolor; RT-PCR; 2 mM, 1 h).
`CCc1ccc(-c2nc(N)c3c(Nc4ccccc4)n[nH]c3n2)cc1` gave an IC50 of 490 nM (rhinovirus B42; viral cytopathic effect; HeLa).
With `COc1ccccc1-c1n[nH]c2nc(N[C@H]3CC[C@H](NS(=O)(=O)CC(C)C)CC3)ncc12` the EC50 was 14.3 nM (Leishmania donovani; parasite growth; THP-1; intracellular, amastigote).
`COc1ccc(-c2cccc3ccccc23)c2c1C=NC(C)(C)C2` has an IC50 of 14500 nM (Plasmodium falciparum; parasite growth, SYBR Green; NF54; blood stage).
For `Nc1nc(-c2ccncc2)nc2[nH]nc(Nc3ccc(F)cc3)c12`, the IC50 was 1250 nM (rhinovirus B42; viral cytopathic effect; HeLa).
With `O=c1[nH]cc(C(c2ccccc2Cl)c2c[nH]c(=O)[nH]c2=O)c(=O)[nH]1` the inhibition was 20% (Human immunodeficiency virus 1; viral replication, inhibitor, ELISA; 1 µg/mL).
For `CN(C)CCCSC(=S)N1CCN(C(=O)/C=C/c2coc3ccccc3c2=O)CC1`, the inhibition was 71% and 75% (PVY; virus inactivation; 500 µg/mL).
For `O=c1[nH]cc(C(c2ccc(Oc3ccccc3)cc2)c2c[nH]c(=O)[nH]c2=O)c(=O)[nH]1`, the inhibition was 33% (Human immunodeficiency virus 1; viral replication, inhibitor, ELISA; 1 µg/mL).
For `FC(F)(F)c1cccc(CNc2nc(NC3CCN(Cc4ccccc4)CC3)c3nc[nH]c3n2)c1`, “log2 fold change” read 0.386 (Cryptococcus neoformans; RNA-seq, measured: CNAG_05320; wild type; 48 µg/mL, 3 h; reference: untreated wild type).
`COc1cc(O)c(-c2cc(-c3cc(-c4c(O)cc(OC)c5c4C[C@@H](C)N[C@@H]5C)c4cc(C)cc(OC)c4c3O)c(O)c3c(OC)cc(C)cc23)c2c1[C@@H](C)N[C@H](C)C2` gave an IC50 of 70 ± 14 nM (Plasmodium falciparum; asexual parasite proliferation, SYBR Green I fluorescence; 7G8).
`CC(C)(C)NCC(SS(=O)(=O)O)c1ccccc1` (stereo not shown) — result for “male worms recovered”: 1 worms per mouse and 2 worms per mouse and 3 worms per mouse and 5 worms per mouse and 0 worms per mouse (Schistosoma mansoni; mice; 600 mg/kg single dose, dosed day 15, perfused 44).

Repeated from above:
`Nc1nc(-c2ccc(C(F)(F)F)cc2)nc2[nH]nc(Nc3ccc(F)cc3)c12` gave an IC50 of 3180 nM (rhinovirus B42; viral cytopathic effect; HeLa).
For `CCCOC(=O)N1c2cc(CNC)ccc2[C@H](NC(=O)C(=O)Nc2ccc(Cl)c(F)c2)[C@H]1CNC(=N)N`, the IC80 was 107 nM (HIV-1; pseudovirus infection, Env pseudovirus neutralisation; TZM-bl, clade B).
